{"data": "Measured values collected from several papers", "note": "Lines come from different studies, so protocols differ. “And” joins repeats or separate records; there may be more than shown. ± gives the spread as reported.", "sequence of UniProt Q9UNQ0 (whole entry, looked up)": "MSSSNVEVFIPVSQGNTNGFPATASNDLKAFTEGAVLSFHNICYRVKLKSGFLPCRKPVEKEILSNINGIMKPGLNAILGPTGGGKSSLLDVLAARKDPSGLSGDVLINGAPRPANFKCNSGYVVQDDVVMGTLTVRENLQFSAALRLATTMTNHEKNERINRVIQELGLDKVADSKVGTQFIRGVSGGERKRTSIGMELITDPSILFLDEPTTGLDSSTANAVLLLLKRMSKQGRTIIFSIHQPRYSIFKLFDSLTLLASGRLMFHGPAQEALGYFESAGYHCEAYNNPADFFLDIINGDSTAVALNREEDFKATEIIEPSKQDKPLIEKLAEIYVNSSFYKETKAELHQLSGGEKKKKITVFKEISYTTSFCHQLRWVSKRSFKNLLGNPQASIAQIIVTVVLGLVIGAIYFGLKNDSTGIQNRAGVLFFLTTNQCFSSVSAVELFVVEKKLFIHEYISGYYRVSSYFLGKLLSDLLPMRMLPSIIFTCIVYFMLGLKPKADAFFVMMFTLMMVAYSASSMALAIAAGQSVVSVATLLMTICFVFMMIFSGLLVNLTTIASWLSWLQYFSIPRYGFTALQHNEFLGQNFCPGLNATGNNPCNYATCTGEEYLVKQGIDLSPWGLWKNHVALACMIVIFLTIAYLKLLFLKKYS", "sequence of UniProt Q4U2R8 (whole entry, looked up)": "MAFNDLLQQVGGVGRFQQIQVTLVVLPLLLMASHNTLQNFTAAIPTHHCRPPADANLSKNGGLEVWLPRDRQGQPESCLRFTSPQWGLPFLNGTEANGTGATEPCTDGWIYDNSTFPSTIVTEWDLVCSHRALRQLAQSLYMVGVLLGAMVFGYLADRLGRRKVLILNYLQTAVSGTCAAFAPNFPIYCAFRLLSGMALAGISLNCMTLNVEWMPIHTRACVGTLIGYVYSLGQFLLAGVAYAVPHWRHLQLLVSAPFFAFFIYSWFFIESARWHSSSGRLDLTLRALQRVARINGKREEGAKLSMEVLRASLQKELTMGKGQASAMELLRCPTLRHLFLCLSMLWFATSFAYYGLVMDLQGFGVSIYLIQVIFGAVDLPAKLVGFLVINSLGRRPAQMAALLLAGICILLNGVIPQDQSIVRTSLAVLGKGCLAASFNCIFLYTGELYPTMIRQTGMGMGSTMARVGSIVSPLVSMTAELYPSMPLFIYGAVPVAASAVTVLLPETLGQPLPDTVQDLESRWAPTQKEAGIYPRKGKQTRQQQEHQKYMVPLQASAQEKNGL"}
{"SMILES": "Cc1cc(-c2ccc3ccccc3c2)nnc1NCCN1CCN(C)CC1", "tested on": "Broad substrate specificity ATP-binding cassette transporter ABCG2 (ABCG2, Homo sapiens, UniProt Q9UNQ0)", "assay": "transport", "setting": "concentration not given", "quantity": "inhibition", "result": "negative"}
{"SMILES": "Cc1ccc(OCCN(C)C)cc1C(=O)N[C@H](C)c1cc(-c2ccc(C#N)nc2)nc2ccccc12", "tested on": "Vero E6", "setting": "7.812 µM", "quantity": "viability", "result": "98.8% and 103%"}
{"SMILES": "COc1ccc2c3c1O[C@H]1[C@@H](O)CC[C@H]4[C@@H](C2)N(CCc2ccccc2)CC[C@@]341", "test system": "octanol/phosphate buffer", "setting": "1 h, pH 6.89, ionic strength 0.15 M", "quantity": "logD", "result": 1.7}
{"SMILES": "Cc1ccc(N(C)C2(C)CN(C)C2)cc1C(=O)N[C@H](C)c1cc(-c2cnn(C)c2)nc2ccccc12", "tested on": "Vero E6", "setting": "3.906 µM", "quantity": "viability", "result": "97.1%"}
{"SMILES": "Cc1nc2cccc(OCC(C)(C)C(=O)NC(C)C)c2c(N)c1C(=O)[O-].[Na+]", "tested on": "Escherichia coli", "assay": "reverse mutation, preincubation", "test system": "WP2 uvrA", "setting": "2.0 mg/plate, with rat liver S9", "quantity": "revertant colonies", "result": "35 ± 8 colonies/plate"}
{"SMILES": "COc1ccc2c3c1O[C@H]1[C@H](O)CC[C@H]4[C@@H](C2)N(C)CC[C@@]341", "assay": "pH-potentiometric titration", "scale": "baseline: O-methyl derivative", "quantity": "Δlog K, saturation effect", "result": "0.58 log units"}
{"SMILES": "CCn1ccc(-c2cc([C@@H](C)NC(=O)c3cc(OCCN(C)C)ccc3C)c3ccccc3n2)n1", "tested on": "Vero E6", "setting": "500 µM", "quantity": "viability", "result": "0.633% and 3.16% and 0.791%"}
{"SMILES": "O=C1NC2(CC2)COc2ncc(F)cc2[C@H]2COCCN2c2ccn3ncc1c3n2", "test system": "Sprague-Dawley rat, female, uterus", "setting": "oral, 20 mg/kg/day, 4 weeks dosing, end of recovery", "quantity": "organ-to-body weight ratio", "result": "0.229 ± 0.045%"}
{"SMILES": "Nc1c2c(nc3sc4c(c13)CCCCC4)CCCC2", "tested on": "CHO", "assay": "cytotoxicity", "setting": "3 days", "quantity": "IC50", "result": "> 10 µM"}
{"SMILES": "CC(=O)c1cccc(-c2nc(Nc3ccccc3)nc(N3CCOCC3)n2)c1", "tested on": "Cytochrome P450 3A4 (CYP3A4, Homo sapiens, UniProt P08684)", "setting": "10 µM", "quantity": "inhibition", "result": "< 10%"}
{"SMILES": "CC[C@H](C)[C@H](NC(=O)[C@H](CCCCN)NC(=O)[C@H](CCCCN)NC(=O)[C@H](Cc1ccccc1)NC(=O)[C@H](Cc1ccccc1)NC(=O)[C@H](CCCCN)NC(=O)[C@H](CCCCN)NC(=O)[C@H](Cc1ccccc1)NC(=O)[C@H](CCCNC(=N)N)NC(=O)[C@@H](N)CCCCN)C(=O)N[C@@H](CCCCN)C(=O)N[C@@H](CCCCN)C(=O)N[C@@H](CO)C(=O)N[C@H](C(=O)N[C@@H](CCCCN)C(=O)N[C@@H](CCCCN)C(=O)N[C@@H](CCCNC(=N)N)C(=O)N[C@H](C(=O)N[C@@H](CCCCN)C(=O)N[C@@H](CCCCN)C(=O)N[C@@H](CC(C)C)C(=O)N[C@@H](Cc1ccccc1)C(=O)N[C@@H](CCCCN)C(=O)N[C@@H](CCCCN)C(=O)N1CCC[C@H]1C(=O)N[C@@H](CCCNC(=N)N)C(=O)N[C@H](C(=O)N[C@H](C(=O)N1CCC[C@H]1C(=O)N[C@H](C(=O)N[C@@H](CO)C(=O)N[C@H](C(=O)N1CCC[C@H]1C(=O)N[C@@H](Cc1ccccc1)C(=O)O)[C@@H](C)CC)[C@@H](C)CC)[C@@H](C)CC)C(C)C)C(C)C)C(C)C", "tested on": "Escherichia coli", "test system": "E24", "setting": "after heating at 90 °C", "quantity": "MIC", "result": "4 µg/mL"}
{"SMILES": "CC(=O)NCCCC[C@@H]1NC(=O)[C@H](Cc2c[nH]c3c(C)cccc23)NC(=O)[C@H]([C@@H](C)O)NC(=O)[C@H](CC(N)=O)NC(=O)[C@@H](NC(C)=O)C(C)(C)SSC(C)(C)[C@@H](C(=O)N[C@@H](Cc2ccc(OCCN)cc2)C(=O)N[C@@H](Cc2ccc3ccccc3c2)C(=O)NC2(C(=O)N[C@@H](CCC(=O)O)C(=O)N[C@@H](CC(N)=O)C(=O)N[C@@H](Cc3cccnc3)C(=O)N(C)CC(N)=O)CCOCC2)NC1=O", "tested on": "Solute carrier family 22 member 6 (SLC22A6, Homo sapiens, UniProt Q4U2R8)", "assay": "substrate", "test system": "HEK293 overexpressing transporter", "setting": "5 µM, 30 min, together with: 300 µM probenecid", "quantity": "uptake rate", "result": "0.186 ± 0.013 pmol/mg/min"}
{"SMILES": "Cc1ccc(O[C@H]2CCN(C)C2)cc1C(=O)N[C@H](C)c1cc(-c2cnn(C)c2)nc2ccccc12", "tested on": "Vero E6", "setting": "3.906 µM", "quantity": "viability", "result": "101% and 97.4% and 97.6%"}
{"SMILES": "COc1ccc2c3c1O[C@H]1[C@@H](O)C=C[C@H]4[C@@H](C2)N(CCc2ccccc2)CC[C@@]341", "test system": "octanol/buffer", "setting": "1 h, pH 7.4", "quantity": "logD", "result": 2.61}
{"SMILES": "CCCCCC1=C(NCC)C(=O)C(C/C=C(\\C)CCC=C(C)C)=C(O)C1=O", "tested on": "human peripheral blood lymphocytes", "setting": "5 µg/mL, 24 h, without S9", "quantity": "cytostasis", "result": "-25%"}
{"SMILES": "COc1ccc2c3c1O[C@H]1[C@@H](O)C=C[C@@]4(OC(C)=O)[C@@H](C2)N(C)CC[C@]314", "test system": "octanol/buffer", "setting": "1 h, pH 7.4", "quantity": "logD", "result": 0.63}
{"SMILES": "Cc1ccc(OCCN(C)C)cc1C(=O)N[C@H](C)c1cc(-c2scnc2C)nc2ccccc12", "tested on": "Vero E6", "setting": "3.906 µM", "quantity": "viability", "result": "109% and 108%"}
{"SMILES": "COc1ccc2c3c1O[C@H]1C(=O)CC[C@@]4(O)[C@@H](C2)N(CC2CCC2)CC[C@]314", "assay": "PAMPA-BBB", "test system": "porcine brain lipid", "setting": "500 µM, 4 h, pH 7.4, 1% DMSO", "quantity": "Papp", "result": "57.7 ×10⁻⁶ cm/s"}
{"SMILES": "Cc1ccc(N2CCC3(CC2)CN(C)C3)cc1C(=O)N[C@H](C)c1cc(-c2cnn(C)c2)nc2ccccc12", "tested on": "Vero E6", "setting": "15.62 µM", "quantity": "viability", "result": "101% and 94.3% and 98.4%"}
{"SMILES": "CC1(F)CN(C(=O)Cn2c(=O)c(C(=O)NCc3ccc(Cl)cc3)cc3nc(N4CCN(CCN)C4=O)cnc32)C1", "tested on": "Epstein-Barr virus", "assay": "qPCR", "setting": "single first test", "scale": "baseline: CC50 over EC50", "quantity": "selectivity index", "result": 79.7}
{"SMILES": "CCn1ccc(-c2cc([C@@H](C)NC(=O)c3cc(OC[C@H]4CCCN4C)ccc3C)c3ccccc3n2)n1", "tested on": "Vero E6", "setting": "15.62 µM", "quantity": "viability", "result": "88.1% and 93.4% and 101%"}
{"SMILES": "CC(C)N1CN(C2c3ccccc3CSc3ccccc32)n2cc(C(=O)O)c(=O)c(O)c2C1=O (stereo not drawn)", "test system": "hamster cells", "quantity": "CC50", "result": "8.4 µM"}
{"SMILES": "Cc1ccc(NC2(C)CN(C)C2)cc1C(=O)N[C@H](C)c1cc(-c2cnn(C)c2)nc2ccccc12", "tested on": "Vero E6", "setting": "125 µM", "quantity": "viability", "result": "110% and 107% and 93.3%"}
{"SMILES": "COc1ccc2c3c1O[C@H]1[C@H](O)CC[C@@]4(O)[C@@H](C2)N(C)CC[C@]314", "test system": "octanol/water, borax buffer", "setting": "1 h, pH 9.84, ionic strength 0 M", "quantity": "logD", "result": 1.06}
{"note": "A few entries again:"}
{"SMILES": "Cc1ccc(N(C)C2(C)CN(C)C2)cc1C(=O)N[C@H](C)c1cc(-c2cnn(C)c2)nc2ccccc12", "tested on": "Vero E6", "setting": "3.906 µM", "quantity": "viability", "result": "97.1%"}
{"SMILES": "Nc1c2c(nc3sc4c(c13)CCCCC4)CCCC2", "tested on": "CHO", "assay": "cytotoxicity", "setting": "3 days", "quantity": "IC50", "result": "> 10 µM"}
{"SMILES": "CC[C@H](C)[C@H](NC(=O)[C@H](CCCCN)NC(=O)[C@H](CCCCN)NC(=O)[C@H](Cc1ccccc1)NC(=O)[C@H](Cc1ccccc1)NC(=O)[C@H](CCCCN)NC(=O)[C@H](CCCCN)NC(=O)[C@H](Cc1ccccc1)NC(=O)[C@H](CCCNC(=N)N)NC(=O)[C@@H](N)CCCCN)C(=O)N[C@@H](CCCCN)C(=O)N[C@@H](CCCCN)C(=O)N[C@@H](CO)C(=O)N[C@H](C(=O)N[C@@H](CCCCN)C(=O)N[C@@H](CCCCN)C(=O)N[C@@H](CCCNC(=N)N)C(=O)N[C@H](C(=O)N[C@@H](CCCCN)C(=O)N[C@@H](CCCCN)C(=O)N[C@@H](CC(C)C)C(=O)N[C@@H](Cc1ccccc1)C(=O)N[C@@H](CCCCN)C(=O)N[C@@H](CCCCN)C(=O)N1CCC[C@H]1C(=O)N[C@@H](CCCNC(=N)N)C(=O)N[C@H](C(=O)N[C@H](C(=O)N1CCC[C@H]1C(=O)N[C@H](C(=O)N[C@@H](CO)C(=O)N[C@H](C(=O)N1CCC[C@H]1C(=O)N[C@@H](Cc1ccccc1)C(=O)O)[C@@H](C)CC)[C@@H](C)CC)[C@@H](C)CC)C(C)C)C(C)C)C(C)C", "tested on": "Escherichia coli", "test system": "E24", "setting": "after heating at 90 °C", "quantity": "MIC", "result": "4 µg/mL"}
